Measured values from different studies.
Every numbered part comes from another study and shows a few of its results, in no order. Substitutions count along the parent as printed.

Sample 1
Target: RING finger protein unkempt homolog, zinc fingers 1-6, GST-SBP tag (UNK, Homo sapiens, UniProt Q9C0B0, residues 30-357)
Method: RNA Bind-n-Seq
Form: RNA
Matrix: in vitro
Tested at: not given
Setting: RNA with constant flanks, human and mouse sites, ends assumed
Relative to: input RNA pool
Reading: higher = stronger binding
Shared flanks, not repeated: GGGAGUUCUACAGUCCGACGAUC … CAACAGAGGAUUGAGCAUCA
Residues (chain): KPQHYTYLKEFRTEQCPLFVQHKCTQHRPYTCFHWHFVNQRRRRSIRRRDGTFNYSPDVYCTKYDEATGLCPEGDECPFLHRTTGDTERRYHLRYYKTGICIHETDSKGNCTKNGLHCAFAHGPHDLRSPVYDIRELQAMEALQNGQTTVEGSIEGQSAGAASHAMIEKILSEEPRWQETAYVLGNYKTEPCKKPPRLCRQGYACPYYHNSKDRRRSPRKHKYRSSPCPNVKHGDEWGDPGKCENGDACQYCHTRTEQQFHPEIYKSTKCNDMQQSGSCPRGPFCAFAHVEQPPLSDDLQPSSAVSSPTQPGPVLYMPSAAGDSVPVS
| Strand | bound/input enrichment [ratio] |
| --- | --- |
| GCAAGACGGUGCAGCGUGACAUCCGUGGAGUCCACAGUGUCCUCGGGGACCCAGACAGCCAUUCAGGAUGACCCAGAGCAGUUUGAGGUCAUCAAACAACAGAAGGAAAUCAUUGAGCAU | 0.0892 |
| CAGAAGUGGAUUGAGCAAGUAACUGGCAGAAGUUUUGGUGAUAAAGAUUUUCGGACAGGUUUAGAAAAUGGAAUCCUCCUCUGCGAGUUGCUGAAUGCUAUAAAGCCAGGACUUGUUAAA | 0.737 |
| UCACAAGCACAAAUCUUUCCCACUAGCCAUUUAAUAAGUUAAAAAAAGAUACACAAACCUACUAGUCUUGAACAAACUGUCAUACGUAUGGGACCUACACUUAAUCUCUAUGCUUUACAC | 28 |
| UGGAAACUGAUUUAAGAAGGAAGUACUUGACCCAGGUGGAUAUAUUGCCUCAAGAUGAAGAGUAUUUUAAGGAUGCCAGGAUGCUAUCUCUGCAAAGAGCUCUGGUGGUCCUGAAGUAUC | 0.169 |
| ACCAAAGGCCUGGAUGCUUCCAGCAAGAGAAACACGGACAAAGCUGUGUCUGUUGAGGCUGCGGAGAGAGACUGGGAAGAGAAGCGGGCAGCCCUGACCCAGUACAGCGCCAAGGACAUC | 0.171 |
| AAGUUUGGAUUUGAAAUUAGUUUUCCUGAAUUUUGUUUAAAGGGAGUCACACUUAAGAAUUUUAGUACUUCUAAUUUAAAUACUGACUUCCUUGCCAAAAAGAUCAUACCAUCAAAGGAU | 0.549 |
| AGCAAUCCAGAUCUCUAUGGUCCCUUUUGGAUAUGUGCCACGUUGGUCUUUGCCAUAGCAAUUAGUGGGAACCUUUCUAACUUCCUAAUCCAUCUGGGAGAGAAGACAUACCAUUAUGUG | 0.117 |
| AUCCCACUGGGGAACUAGUCCUGUCCAUCUGGUGUUGGCGUGCUGGCUGCACACUUUGUUUUAGGGCCUGAACACCUGUGUGUAUGUGUGUGUGUAUGUGUGUGUGUGCGUGCGUGUGCU | 0.539 |

Sample 2
Target: TAR DNA-binding protein 43, full length, His tag (TARDBP, Homo sapiens, UniProt Q13148, residues 1-414)
Method: RNA Bind-n-Seq
Form: RNA
Matrix: in vitro
Tested at: 20 nM
Setting: 6-mer, flanks averaged, single round
With: 150 mM LiCl
Relative to: input library
Reading: higher = stronger binding
| Strand | 6-mer enrichment (R) |
| --- | --- |
| UCCAGG | 0.935 |
| AGGUUU | 1.02 |
| GUCACA | 0.864 |
| CUAAAA | 0.855 |
| AUGGUA | 1.06 |
| AGCCGA | 0.856 |
| GGAGCA | 1.01 |
| CGCCUU | 0.991 |

Single results of other studies
P1: viral docking peptide; KKAKRRLFTISDS; partner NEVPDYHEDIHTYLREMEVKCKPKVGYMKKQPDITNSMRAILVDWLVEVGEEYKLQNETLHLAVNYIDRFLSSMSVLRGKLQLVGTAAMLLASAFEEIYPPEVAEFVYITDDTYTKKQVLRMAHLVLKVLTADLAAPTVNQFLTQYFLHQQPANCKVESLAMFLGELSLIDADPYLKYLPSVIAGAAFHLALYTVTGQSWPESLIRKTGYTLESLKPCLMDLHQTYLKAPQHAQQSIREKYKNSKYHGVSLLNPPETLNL
| Substance | tested on | assay | test system | setting | scale | quantity | result |
| --- | --- | --- | --- | --- | --- | --- | --- |
| NUP98 (Homo sapiens, UniProt P52948) | NUP160 (Homo sapiens, UniProt Q12769) | cross-linking MS |  | hits only |  | interaction screen | cross-linked |
| P1 T9A | CCNA2, cyclin fold, Cln2 fusion (human) | yeast growth competition, sequencing | yeast | strong parent motif | relative to: not given, higher = stronger binding | normalised enrichment score | 5.17 |
| TMED10 (Homo sapiens, UniProt P49755) | TMED2 (Homo sapiens, UniProt Q15363) | cross-linking MS | cell fractions | with: DMTMM |  | cross-linked residues | K143 to E131 |
| NONO (Homo sapiens, UniProt Q15233) | PSPC1 (Homo sapiens, UniProt Q8WXF1) | cross-linking MS |  | hits only |  | interaction screen | cross-linked |
| DDX10 (Homo sapiens, UniProt Q13206) | DDX18 (Homo sapiens, UniProt Q9NVP1) | cross-linking MS | cell fractions | with: DSSO |  | cross-linked residues | K453 to K577 |

A few entries again (single results of other studies):
| Substance | tested on | assay | test system | setting | scale | quantity | result |
| --- | --- | --- | --- | --- | --- | --- | --- |
| DDX10 (Homo sapiens, UniProt Q13206) | DDX18 (Homo sapiens, UniProt Q9NVP1) | cross-linking MS | cell fractions | with: DSSO |  | cross-linked residues | K453 to K577 |
| TMED10 (Homo sapiens, UniProt P49755) | TMED2 (Homo sapiens, UniProt Q15363) | cross-linking MS | cell fractions | with: DMTMM |  | cross-linked residues | K143 to E131 |
| NONO (Homo sapiens, UniProt Q15233) | PSPC1 (Homo sapiens, UniProt Q8WXF1) | cross-linking MS |  | hits only |  | interaction screen | cross-linked |
